Assay results collected from several papers.
Lines come from different studies, so protocols differ.
U2AF2: U2AF2 148-342 (Homo sapiens, UniProt P26368)
Sequence of UniProt P26368 (whole entry, looked up): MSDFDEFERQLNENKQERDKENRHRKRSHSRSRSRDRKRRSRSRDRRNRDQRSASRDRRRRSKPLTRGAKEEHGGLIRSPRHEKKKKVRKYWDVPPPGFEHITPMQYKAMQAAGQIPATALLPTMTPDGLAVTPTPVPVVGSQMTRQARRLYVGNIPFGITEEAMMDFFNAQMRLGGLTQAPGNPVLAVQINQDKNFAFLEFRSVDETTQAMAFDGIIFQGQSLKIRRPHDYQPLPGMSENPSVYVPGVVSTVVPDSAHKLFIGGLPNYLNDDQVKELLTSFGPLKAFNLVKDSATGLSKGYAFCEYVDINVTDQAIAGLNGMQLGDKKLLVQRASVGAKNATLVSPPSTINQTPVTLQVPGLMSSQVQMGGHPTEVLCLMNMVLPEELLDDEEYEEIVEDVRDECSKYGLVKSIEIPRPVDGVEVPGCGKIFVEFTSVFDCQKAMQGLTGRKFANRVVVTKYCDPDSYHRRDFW
B1: dszC H391A (Rhodococcus erythropolis, UniProt P54998); sequence looked up; chain MTLSPEKQHVRPRDAADNDPVAVARGLAEKWRATAVERDRAGGSATAEREDLRASGLLSLLVPREYGGWGADWPTAIEVVREIAAADGSLGHLFGYHLTNAPMIELIGSQEQEEHLYTQIAQNNWWTGNASSENNSHVLDWKVSATPTEDGGYVLNGTKHFCSGAKGSDLLFVFGVVQDDSPQQGAIIAAAIPTSRAGVTPNDDWAAIGMRQTDSGSTDFHNVKVEPDEVLGAPNAFVLAFIQSERGSLFAPIAQLIFANVYLGIAHGALDAAREYTRTQARPWTPAGIQQATEDPYTIRSYGEFTIALQGADAAAREAAHLLQTVWDKGDALTPEDRGELMVKVSGVKALATNAALNISSGVFEVIGARGTHPRYGFDRFWRNVRTHSLADPVSYKIADVGKHTLNGQYPIPGFTS
B2: SPOP 28-359 (Homo sapiens, UniProt O43791); sequence looked up; chain KVVKFSYMWTINNFSFCREEMGEVIKSSTFSSGANDKLKWCLRVNPKGLDEESKDYLSLYLLLVSCPKSEVRAKFKFSILNAKGEETKAMESQRAYRFVQGKDWGFKKFIRRDFLLDEANGLLPDDKLTLFCEVSVVQDSVNISGQNTMNMVKVPECRLADELGGLWENSRFTDCCLCVAGQEFQAHKAILAARSPVFSAMFEHEMEESKKNRVEINDVEPEVFKEMMCFIYTGKAPNLDKMADDLLAAADKYALERLKVMCEDALCSNLSVENAAEILILADLHSADQLKTQAVDFINYHASDVLETSGWKSMVVSHPHLVAEAYRSLASA
B3: SPOP Y87F (Homo sapiens, UniProt O43791); sequence looked up; chain MSRVPSPPPPAEMSSGPVAESWCYTQIKVVKFSYMWTINNFSFCREEMGEVIKSSTFSSGANDKLKWCLRVNPKGLDEESKDYLSLFLLLVSCPKSEVRAKFKFSILNAKGEETKAMESQRAYRFVQGKDWGFKKFIRRDFLLDEANGLLPDDKLTLFCEVSVVQDSVNISGQNTMNMVKVPECRLADELGGLWENSRFTDCCLCVAGQEFQAHKAILAARSPVFSAMFEHEMEESKKNRVEINDVEPEVFKEMMCFIYTGKAPNLDKMADDLLAAADKYALERLKVMCEDALCSNLSVENAAEILILADLHSADQLKTQAVDFINYHASDVLETSGWKSMVVSHPHLVAEAYRSLASAQCPFLGPPRKRLKQS
B4: Gm4951 Q183A/D185A (Mus musculus, UniProt Q3UED7); sequence looked up; chain MGQLFSSRRSEDQDLSSSFIEYLKECEKGINIIPHEIITSIEINMKKGNIQEVNSTVRDMLREIDNTPLNVALTGETGSGKSSFINTLRGIGHEEGGAAHTGVTDKTKERHPYEHPKMPNVVFWDLPGTGSEDFQPKTYLEKMKFYEYDFFIIISATRFKKNDIDLAKAIGIMKKEFYFVRTAVASDLRNEEDFKPQTFDREKVLQDIRLNCVNTFRENGIAEPPIFLISNKNVCHYDFPVLMDKLISDLPVFKRQNFMFSLPNITDSVIEKKRNFLRWKTWLEGFADGLLSFFLESDLETLEKSMKFYRTVFGVDDASLQRLARAWEIDQVDQVRAMIKSPAVFTPTDEETIQERLSRYNQEFCLANGYLLPKNHCREILYLKLYFLDMVTEDAKTLLKEICLRN
B5: casC (Escherichia coli, UniProt Q46899); sequence looked up; chain MSNFINIHVLISHSPSCLNRDDMNMQKDAIFGGKRRVRISSQSLKRAMRKSGYYAQNIGESSLRTIHLAQLRDVLRQKLGERFDQKIIDKTLALLSGKSVDEAEKISADAVTPWVVGEIAWFCEQVAKAEADNLDDKKLLKVLKEDIAAIRVNLQQGVDIALSGRMATSGMMTELGKVDGAMSIAHAITTHQVDSDIDWFTAVDDLQEQGSAHLGTQEFSSGVFYRYANINLAQLQENLGGASREQALEIATHVVHMLATEVPGAKQRTYAAFNPADMVMVNFSDMPLSMANAFEKAVKAKDGFLQPSIQAFNQYWDRVANGYGLNGAAAQFSLSDVDPITAQVKQMPTLEQLKSWVRNNGEA
B6: CRYAA R21Q (Homo sapiens, UniProt P02489); sequence looked up; chain MDVTIQHPWFKRTLGPFYPSQLFDQFFGEGLFEYDLLPFLSSTISPYYRQSLFRTVLDSGISEVRSDRDKFVIFLDVKHFSPEDLTVKVQDDFVEIHGKHNERQDDHGYISREFHRRYRLPSNVDQSALSCSLSADGMLTFCGPKIQTGLDATHAERAIPVSREEKPTSAPSS
B7: dlg1 1-97 I34G (Drosophila melanogaster, UniProt P31007); sequence looked up; chain MPVKKQEAHRALELLEDYHARLSEPQDRALRIAGERVIRIFKSRLFQALLDIQEFYELTLLDDSKSIQQKTAETLQIATKWEKDGQAVKIADFIKSS
B8: NINJ1 (Homo sapiens, UniProt Q92982); sequence looked up; chain MDSGTEEYELNGGLPPGTPGSPDASPARWGWRHGPINVNHYASKKSAAESMLDIALLMANASQLKAVVEQGPSFAFYVPLVVLISISLVLQIGVGVLLIFLVKYDLNNPAKHAKLDFLNNLATGLVFIIVVVNIFITAFGVQKPLMDMAPQQ
B9: clcA 1-465 C85A/F219A/I220A/I223A/I227A (Escherichia coli, UniProt P37019); chain MKTDTPSLETPQAARLRRRQLIRQLLERDKTPLAILFMAAVVGTLVGLAAVAFDKGVAWLQNQRMGALVHTADNYPLLLTVAFLASAVLAMFGYFLVRKYAPEAGGSGIPEIEGALEDQRPVRWWRVLPVKFFGGLGTLGGGMVLGREGPTVQIGGNIGRMVLDIFRLKGDEARHTLLATGAAAGLAAAFNAPLAGILFIIEEMRPQFRYTLISIKAVAAGVAMSTAMYRIFNHEVALIDVGKLSDAPLNTLWLYLILGIIFGIFGPIFNKWVLGMQDLLHRVHGGNITKWVLMGGAIGGLCGLLGFVAPATSGGGFNLIPIATAGNFSMGMLVFIFVARVITTLLCFSSGAPGGIFAPMLALGTVLGTAFGMVAVELFPQYHLEAGTFAIAGMGALLAASIRAPLTGIILVLEMTDNYQLILPMIITGLGATLLAQFTGGKPLYSAILARTLAKQEAEQLARSK

Molecule	tested on	assay	system	setting	scale	measurement	value
SSRP1 (human)	CYB5R4 knockout human cells	PP4 interaction, 3xFLAG-PP4C IP-MS	–	concentration not given	baseline: CYB5R4 KO over parental	log2 fold change	-0.18
B1 (dszC H391A)	itself	SEC	–	–	–	binding	binds
B2 (SPOP 28-359)	itself	cross-linking	–	–	–	binding	binds
B3 (SPOP Y87F)	itself	negative-stain TEM	–	–	–	binding	binds
MDKVQYLTRSAIRRASTIEMPQQARQNLQNLFINFCLILICLLLICIIVMLL (PLN (Sus scrofa, UniProt P61013); sequence looked up)	itself	immunoblot SDS-PAGE	–	–	–	binding	binds
GUCUUUGUC (ssRNA)	U2AF2	sequencing of bound RNA	RNA	motif only	–	Kd	7.6 µM
B4 (Gm4951 Q183A/D185A)	itself	mass photometry	–	–	–	binding	binds
B5 (casC)	itself	SEC	–	–	–	binding	binds
B6 (CRYAA R21Q)	itself	SEC-MALS	–	1 hour h, pH 7.4, 37 °C	–	binding	binds
B7 (dlg1 1-97 I34G)	itself	SEC	–	–	–	binding	binds
B8 (NINJ1)	itself	cryo-EM	–	–	–	binding	binds
B9	itself	SEC	–	–	–	binding	binds
CUUCUUGCU (ssRNA)	U2AF2	sequencing of bound RNA	RNA	motif only	–	Kd	3.26 µM
